Measured values of several laboratories.
A part holds a random share of what one study measured. ± marks the error that the study gave.

Set 1
Effect on: DPPH scavenging
For Cc1cccc(NC(=O)CSc2nc3ccccc3cc2C=Nn2c(S)nnc2-c2ccccc2)c1C, the IC50 was 142 µM.
O=C(CSc1nc2ccccc2cc1C=Nn1c(S)nnc1-c1ccccc1)Nc1ccc(Cl)cc1 has an IC50 of 116 µM.
For O=C(CSc1nc2ccccc2cc1C=Nn1c(S)nnc1-c1ccccc1)Nc1cccc(Cl)c1, the IC50 was 94.5 µM.
The IC50 of O=C(CSc1nc2ccccc2cc1C=Nn1c(S)nnc1-c1ccccc1)Nc1ccc(Cl)cc1Cl is reported as 124 µM.
O=C(CSc1nc2ccccc2cc1C=Nn1c(S)nnc1-c1ccccc1)Nc1ccccc1Cl has an IC50 of 106 µM.
With O=C(CSc1nc2ccccc2cc1C=Nn1c(S)nnc1-c1ccccc1)Nc1ccccc1 the IC50 was 107 µM.

Set 2
Organism: Leishmania major
Technique: annexin V/PI flow cytometry
Strain: promastigotes
Concentration: IC50
The apoptotic cells of Fc1ccc(C=NNC(=S)Nc2cccnc2)cc1 is reported as 42.2%.
CNC(=S)NN=Cc1ccc(O)c(OC)c1 has an apoptotic cells of 41.5%.
With CNC(=S)NN=Cc1ccc([N+](=O)[O-])cc1 the apoptotic cells was 16.2%.
CNC(=S)NN=Cc1ccc(OC)c(OC)c1 gave an apoptotic cells of 36.2%.

Set 3
SMILES: COC(=O)c1cnn(-c2ccc(F)cc2F)c1C=NNC(=S)NC(C)(C)C
Target: G-protein coupled receptor 35 (GPR35, Homo sapiens, UniProt Q9HC97)
UniProt Q9HC97, sequence (whole entry, looked up): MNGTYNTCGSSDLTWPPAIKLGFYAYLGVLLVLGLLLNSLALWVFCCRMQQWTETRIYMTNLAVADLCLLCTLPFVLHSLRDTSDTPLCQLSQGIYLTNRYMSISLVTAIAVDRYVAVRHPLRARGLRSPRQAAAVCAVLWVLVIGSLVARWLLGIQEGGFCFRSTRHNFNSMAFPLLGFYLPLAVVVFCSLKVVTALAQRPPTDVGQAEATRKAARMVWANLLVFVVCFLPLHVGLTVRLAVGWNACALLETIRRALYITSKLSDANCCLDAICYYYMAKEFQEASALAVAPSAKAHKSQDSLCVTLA
Effect on: dynamic mass redistribution
Action: antagonist
Cells: HT-29
For added: gentisate 0.5 mM: IC50 read 6.65 ± 0.49 µM.
added: DOPAC 1 mM — IC50: 4.6 ± 0.31 µM.
The IC50 was 2.07 ± 0.17 µM (added: T4 1 mM).
It gave 1.97 ± 0.15 µM for IC50 (added: DHPG 1 mM).
For added: rosmarinate 32 µM: IC50 read 2.22 ± 0.19 µM.

Set 4
Target: Metabotropic glutamate receptor 2 (GRM2, Homo sapiens, UniProt Q14416)
UniProt Q14416, sequence (whole entry, looked up): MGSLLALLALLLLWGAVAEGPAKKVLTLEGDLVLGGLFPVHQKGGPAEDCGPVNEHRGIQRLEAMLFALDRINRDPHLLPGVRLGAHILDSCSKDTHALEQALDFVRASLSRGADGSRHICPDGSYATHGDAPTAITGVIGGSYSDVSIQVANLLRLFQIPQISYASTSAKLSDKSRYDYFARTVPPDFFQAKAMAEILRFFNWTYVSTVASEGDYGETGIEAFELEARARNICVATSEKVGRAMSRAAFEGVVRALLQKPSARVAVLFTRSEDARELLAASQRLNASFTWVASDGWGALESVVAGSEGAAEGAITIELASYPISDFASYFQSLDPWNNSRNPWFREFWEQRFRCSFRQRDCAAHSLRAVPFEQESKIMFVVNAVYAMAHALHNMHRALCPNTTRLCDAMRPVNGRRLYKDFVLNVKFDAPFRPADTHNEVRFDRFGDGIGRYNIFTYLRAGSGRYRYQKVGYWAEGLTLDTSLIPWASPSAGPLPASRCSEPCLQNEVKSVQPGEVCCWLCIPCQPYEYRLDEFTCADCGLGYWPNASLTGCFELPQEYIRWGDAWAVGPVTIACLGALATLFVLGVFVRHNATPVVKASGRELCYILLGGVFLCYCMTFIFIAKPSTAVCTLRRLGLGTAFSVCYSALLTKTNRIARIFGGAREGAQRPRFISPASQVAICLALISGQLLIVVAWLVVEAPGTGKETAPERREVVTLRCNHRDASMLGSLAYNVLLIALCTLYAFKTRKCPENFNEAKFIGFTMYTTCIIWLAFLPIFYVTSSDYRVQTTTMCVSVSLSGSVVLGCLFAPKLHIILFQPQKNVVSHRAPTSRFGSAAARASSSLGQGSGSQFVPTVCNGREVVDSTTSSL
Effect on: GTPγS binding
Action: positive allosteric modulator
Added: EC20 glutamate
Reference: control glutamate response
The Emax of CCCCn1ccn2c(-c3ccc(N4CCNCC4)c(Cl)c3)c(C)nc2c1=O is reported as 237 ± 81%.
For CCCCn1ccn2c(-c3ccc4c(ccn4-c4cccnc4)c3)c(C)nc2c1=O, the Emax was 224 ± 41%.
With CCCCn1ccn2c(-c3ccc(Oc4ccc(C)nc4C)c(F)c3)c(C)nc2c1=O the Emax was 248 ± 14%.
With CCCCn1ccn2c(-c3ccc(NCc4ccc(OC)nc4)cc3)c(C)nc2c1=O the Emax was 244 ± 23%.

For quick reference, copied from above (set 3):
The IC50 was 2.07 ± 0.17 µM (added: T4 1 mM).
